Measurements of several laboratories.
A part holds a random share of what one study measured. Positions count from the first letter of the parent shown.

Sample 1
Target: Centromere-binding protein 1, full length, His-tagged (CBF1, Saccharomyces cerevisiae, UniProt P17106, residues 1-351)
Sequence of UniProt P17106 (whole entry, looked up): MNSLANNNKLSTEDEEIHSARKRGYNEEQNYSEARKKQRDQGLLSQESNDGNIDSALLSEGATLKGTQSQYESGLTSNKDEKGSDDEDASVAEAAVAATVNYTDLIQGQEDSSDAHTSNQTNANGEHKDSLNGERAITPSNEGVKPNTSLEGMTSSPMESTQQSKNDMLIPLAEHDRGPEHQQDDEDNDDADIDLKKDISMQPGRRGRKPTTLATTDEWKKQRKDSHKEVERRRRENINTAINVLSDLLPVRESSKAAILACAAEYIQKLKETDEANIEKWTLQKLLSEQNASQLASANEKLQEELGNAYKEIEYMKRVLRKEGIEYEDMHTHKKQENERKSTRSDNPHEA
Method: competition protein-binding microarray
Molecule type: double-stranded DNA, one strand shown
Matrix: in vitro
Concentration: 2 µM
Notes: whole 60-bp probe, lowest competitor level
With: Pho4 competitor, 0.05 µM
Direction: higher = stronger binding
`AATCCCTTATCCCGTCACGTGAATTAAACTTCGGGTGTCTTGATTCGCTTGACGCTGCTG` has a fluorescence intensity of 5590 a.u.
`TATTTTAACATGGTCTCCGTGCCGACGGCGTACCCAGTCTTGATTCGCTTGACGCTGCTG` has a fluorescence intensity of 67.9 a.u.
`CATACCCAACCTTTTCACGTGGGTTAAGATATTTGTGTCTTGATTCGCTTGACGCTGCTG` has a fluorescence intensity of 962 a.u.
`CGTCCTAGTGATTGTCACGTTACTTCCATGAGGAAGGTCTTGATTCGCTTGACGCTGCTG` gave a fluorescence intensity of 751 a.u.
With `ATCTAGAATATCCTACACGTCATCAGCGATTATCCGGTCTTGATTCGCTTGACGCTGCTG` the fluorescence intensity was 78.4 a.u.
With `CGTCCTAGTGATTGTAAGGTGGGTGCCATGAGGAAGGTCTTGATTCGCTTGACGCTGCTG` the fluorescence intensity was 83.2 a.u.
`GGTGTCCTCAAAGAATCTCAAGGTCCTAGCAGCTAAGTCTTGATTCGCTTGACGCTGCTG` has a fluorescence intensity of 56.1 a.u.
`CAATTACTGAAGCTTCACGTGCCAGAACGTAAAAATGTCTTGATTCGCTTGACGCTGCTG` has a fluorescence intensity of 1330 a.u.

Sample 2
Target: Histone acetyltransferase KAT6A, winged helix 1, GST fusion (KAT6A, Homo sapiens, UniProt Q92794, residues 1-85)
Method: protein binding microarray
Molecule type: double-stranded DNA, one strand shown
Matrix: in vitro
Concentration: not given
Notes: 8-mer, flanks averaged, mean of 2 arrays, mostly near background
Baseline: not given
Direction: higher = stronger binding
Target sequence (chain): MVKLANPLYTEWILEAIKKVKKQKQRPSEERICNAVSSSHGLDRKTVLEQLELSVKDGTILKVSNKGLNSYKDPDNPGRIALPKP
`CTTCATAA` has an E-score of -0.0386.
`GACTAGAC` gave an E-score of -0.11.
For `AAGTAGCG`, the E-score was 0.07.
For `CCACGACG`, the E-score was 0.162.
For `CTGGTTGA`, the E-score was -0.4.
`CTAGAAAG` has an E-score of 0.0728.
With `ATAATAAC` the E-score was 0.0144.
`AATCTACA` gave an E-score of -0.155.

Sample 3
Target: OGT, full length, His-tagged (human)
Method: phage display, sequencing
Matrix: in vitro
Concentration: 1 µg OGT
Notes: single substitutions, 15-mer displayed peptide, unchanged parent 19.6
Baseline: input library
Direction: higher = stronger binding
Starting sequence: peptide; TAPFYPPAYQIQVFK
The fold enrichment of `P6D` is reported as 0.632 fold.
With `Q10D` the fold enrichment was 0.434 fold.
The fold enrichment of `T1L` is reported as 12.9 fold.
The fold enrichment of `Q10A` is reported as 1.57 fold.
The fold enrichment of `T1Y` is reported as 14.1 fold.
The fold enrichment of `Y5A` is reported as 0.924 fold.
With `A2E` the fold enrichment was 25.4 fold.
For `P6V`, the fold enrichment was 1.42 fold.

Further values, each from its own experiment
Starting sequence: PafA, mature enzyme, eGFP fusion (Elizabethkingia meningoseptica, UniProt Q9KJX5); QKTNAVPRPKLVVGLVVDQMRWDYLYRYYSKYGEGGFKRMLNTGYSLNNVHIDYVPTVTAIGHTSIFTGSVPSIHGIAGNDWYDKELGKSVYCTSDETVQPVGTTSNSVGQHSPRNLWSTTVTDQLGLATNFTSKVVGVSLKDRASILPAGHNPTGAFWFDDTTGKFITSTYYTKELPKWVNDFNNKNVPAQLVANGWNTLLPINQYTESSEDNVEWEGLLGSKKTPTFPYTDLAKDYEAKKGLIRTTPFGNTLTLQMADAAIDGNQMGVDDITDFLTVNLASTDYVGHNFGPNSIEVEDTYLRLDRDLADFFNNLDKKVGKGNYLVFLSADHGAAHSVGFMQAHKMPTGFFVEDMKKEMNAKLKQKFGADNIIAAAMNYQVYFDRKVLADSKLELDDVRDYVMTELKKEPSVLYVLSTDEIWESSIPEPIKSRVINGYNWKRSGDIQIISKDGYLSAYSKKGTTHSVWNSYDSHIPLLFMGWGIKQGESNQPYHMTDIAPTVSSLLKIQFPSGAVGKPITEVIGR
For `S457G`, “phosphate dissociation constant” read 507 µM (inorganic phosphate, free oxyanion; microfluidic competitive inhibition; in vitro, cell-free expressed; not given, derived from inhibition constants, unchanged parent 615000 nM; lower = stronger binding).

Excerpt of the above (sample 2):
With `ATAATAAC` the E-score was 0.0144.
`AATCTACA` gave an E-score of -0.155.
